# Experimental data collected from several papers.
# Each line is one published result; not all experiments were run side by side. Values joined by “and” are separate records of one study, mostly repeats; a detail may differ. ± marks the error that the study gave. No end group written: not given here.
# B1: human hexokinase-1; sequence looked up; chain MIAAQLLAYYFTELKDDQVKKIDKYLYAMRLSDETLIDIMTRFRKEMKNGLSRDFNPTATVKMLPTFVRSIPDGSEKGDFIALDLGGSSFRILRVQVNHEKNQNVHMESEVYDTPENIVHGSGSQLFDHVAECLGDFMEKRKIKDKKLPVGFTFSFPCQQSKIDEAILITWTKRFKASGVEGADVVKLLNKAIKKRGDYDANIVAVVNDTVGTMMTCGYDDQHCEVGLIIGTGTNACYMEELRHIDLVEGDEGRMCINTEWGAFGDDGSLEDIRTEFDREIDRGSLNPGKQLFEKMVSGMYLGELVRLILVKMAKEGLLFEGRITPELLTRGKFNTSDVSAIEKNKEGLHNAKEILTRLGVEPSDDDCVSVQHVCTIVSFRSANLVAATLGAILNRLRDNKGTPRLRTTVGVDGSLYKTHPQYSRRFHKTLRRLVPDSDVRFLLSESGSGKGAAMVTAVAYRLAEQHRQIEETLAHFHLTKDMLLEVKKRMRAEMELGLRKQTHNNAVVKMLPSFVRRTPDGTENGDFLALDLGGTNFRVLLVKIRSGKKRTVEMHNKIYAIPIEIMQGTGEELFDHIVSCISDFLDYMGIKGPRMPLGFTFSFPCQQTSLDAGILITWTKGFKATDCVGHDVVTLLRDAIKRREEFDLDVVAVVNDTVGTMMTCAYEEPTCEVGLIVGTGSNACYMEEMKNVEMVEGDQGQMCINMEWGAFGDNGCLDDIRTHYDRLVDEYSLNAGKQRYEKMISGMYLGEIVRNILIDFTKKGFLFRGQISETLKTRGIFETKFLSQIESDRLALLQVRAILQQLGLNSTCDDSILVKTVCGVVSRRAAQLCGAGMAAVVDKIRENRGLDRLNVTVGVDGTLYKLHPHFSRIMHQTVKELSPKCNVSFLLSEDGSGKGAALITAVGVRLRTEASS
# B2: bicyclic; chain AATCHCRRSCYSTEYSYGTCTVMGINHRFCCL (also: bicyclic or more (positions not given here))
Molecule,tested on,test,test system,setting,how to read,measurement,value
coproporphyrin I,,,"human, plasma",control period,,diurnal variation (Cmean-Cmin)/Cmean,18.6 ± 2.2%
CTOP,,RP-HPLC,HALO C18 column,"25 µM, formic acid/acetonitrile, 25 min gradient",,retention time,5.66 min
Teicoplanin,,item: stability,human serum,"1 days, 2-6 °C, low QC",,recovery,97.7%
[177Lu]Lu-DOTA-TATE,,,solution,up to 24 h,,remaining compound,> 90%
Polymyxin B,,LC-MS,"Sprague-Dawley rat, brain stem","intracerebroventricular, 0.75 mg/kg, 1 h",,concentration,1590 ng/mL and 1410 ng/mL and 970 ng/mL and 1310 ng/mL and 1050 ng/mL and 910 ng/mL
C-peptide,,,prepared human sample,one freeze-thaw cycle,reference: untreated control,bias,13.7%
protopine,,,empty perfusion system,360 min,reference: initial amount,loss by adherence,19.5 ± 8.3%
caspofungin,,,"adult ICU patients, mITT, serum","dose not given, day 4",,alkaline phosphatase,153 U/L
human RGPD3,CYB5R4 knockout human cells,"PP6 interaction, 3xFLAG-PP6C IP-MS",,concentration not given,reference: CYB5R4 KO over parental,log2 fold change,0.66
coproporphyrin III,,UHPLC-MS/MS,"human, serum","oral, 20 mg ezetimibe, 1.33 h, geometric mean ezetimibe phase",,serum concentration,0.693 nM
enterolactone sulfate,,,"human, plasma","dose not given, median",,plasma concentration,148 nM
"FNA / CGLSGLGVA-NH2 ([18F]FNA-labelled, C-amide)",,gamma counting,"peptide, glioblastoma mice, skull bone",60 min,,tissue uptake,0.57 %ID/g
coproporphyrin I,,,"human, serum","oral, 20 mg ezetimibe, 5 h, geometric mean ezetimibe alone",reference: at 5 h over pre-dose,concentration ratio,3.12
equol sulfate,,,"human, plasma","dose not given, mean",,plasma concentration,859 nM
B1 (human hexokinase-1),PP6C (human),"co-immunoprecipitation, IP-MS",CYB5R4 knockout cells,concentration not given,reference: CYB5R4 knockout over parental,log2 fold change,-0.92
Cy5.5,,"IVIS fluorescence, two-compartment model","BALB/c mouse, tumour-free, blood",,,t1/2 beta,9.72 h
regorafenib N-β-glucuronide,,,"wild-type mouse, plasma","oral, 10 mg/kg of regorafenib, single dose",,Tmax,1.6 ± 0.89 h
B2,,sedimentation velocity ultracentrifugation,10 mM sodium phosphate,"160 µM, pH 7.4, 20 °C",,molecular mass,4.36 kDa

# Repeated from above:
Molecule,tested on,test,test system,setting,how to read,measurement,value
Teicoplanin,,item: stability,human serum,"1 days, 2-6 °C, low QC",,recovery,97.7%
Cy5.5,,"IVIS fluorescence, two-compartment model","BALB/c mouse, tumour-free, blood",,,t1/2 beta,9.72 h
coproporphyrin I,,,"human, serum","oral, 20 mg ezetimibe, 5 h, geometric mean ezetimibe alone",reference: at 5 h over pre-dose,concentration ratio,3.12
